# Published values from different studies.
# Numbered parts are unrelated; each lists some results of a single study.
# Sequence of UniProt Q9NRM7 (whole entry, looked up): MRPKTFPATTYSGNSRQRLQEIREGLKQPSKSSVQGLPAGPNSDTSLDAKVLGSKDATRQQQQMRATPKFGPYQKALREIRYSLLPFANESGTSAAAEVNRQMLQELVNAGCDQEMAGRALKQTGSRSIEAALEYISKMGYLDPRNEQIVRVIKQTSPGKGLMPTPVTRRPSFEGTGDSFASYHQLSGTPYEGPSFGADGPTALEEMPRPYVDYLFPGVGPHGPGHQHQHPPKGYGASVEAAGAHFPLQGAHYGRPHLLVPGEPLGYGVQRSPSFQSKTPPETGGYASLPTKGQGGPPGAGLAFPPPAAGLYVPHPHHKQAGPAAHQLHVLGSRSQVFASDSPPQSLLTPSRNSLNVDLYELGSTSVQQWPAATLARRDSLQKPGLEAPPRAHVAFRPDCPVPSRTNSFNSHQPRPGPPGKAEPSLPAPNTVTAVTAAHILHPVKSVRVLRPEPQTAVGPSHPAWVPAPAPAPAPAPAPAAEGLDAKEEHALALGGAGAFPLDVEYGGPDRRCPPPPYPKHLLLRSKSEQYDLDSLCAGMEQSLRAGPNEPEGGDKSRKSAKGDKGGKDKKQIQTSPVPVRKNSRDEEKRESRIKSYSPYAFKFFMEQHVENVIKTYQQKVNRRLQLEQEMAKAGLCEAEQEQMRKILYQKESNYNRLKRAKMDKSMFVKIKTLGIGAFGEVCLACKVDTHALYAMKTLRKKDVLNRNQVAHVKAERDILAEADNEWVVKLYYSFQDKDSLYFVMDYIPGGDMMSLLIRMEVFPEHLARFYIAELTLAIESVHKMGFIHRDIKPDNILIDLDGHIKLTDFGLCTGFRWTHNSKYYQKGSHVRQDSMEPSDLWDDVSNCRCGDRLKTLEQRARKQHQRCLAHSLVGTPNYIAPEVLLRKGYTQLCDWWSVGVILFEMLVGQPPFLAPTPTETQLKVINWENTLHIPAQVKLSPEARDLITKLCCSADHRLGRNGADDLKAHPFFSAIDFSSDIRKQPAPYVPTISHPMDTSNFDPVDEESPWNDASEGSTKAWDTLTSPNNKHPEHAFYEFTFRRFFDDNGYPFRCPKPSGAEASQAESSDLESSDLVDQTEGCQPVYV
# Sequence of UniProt Q14680 (whole entry, looked up): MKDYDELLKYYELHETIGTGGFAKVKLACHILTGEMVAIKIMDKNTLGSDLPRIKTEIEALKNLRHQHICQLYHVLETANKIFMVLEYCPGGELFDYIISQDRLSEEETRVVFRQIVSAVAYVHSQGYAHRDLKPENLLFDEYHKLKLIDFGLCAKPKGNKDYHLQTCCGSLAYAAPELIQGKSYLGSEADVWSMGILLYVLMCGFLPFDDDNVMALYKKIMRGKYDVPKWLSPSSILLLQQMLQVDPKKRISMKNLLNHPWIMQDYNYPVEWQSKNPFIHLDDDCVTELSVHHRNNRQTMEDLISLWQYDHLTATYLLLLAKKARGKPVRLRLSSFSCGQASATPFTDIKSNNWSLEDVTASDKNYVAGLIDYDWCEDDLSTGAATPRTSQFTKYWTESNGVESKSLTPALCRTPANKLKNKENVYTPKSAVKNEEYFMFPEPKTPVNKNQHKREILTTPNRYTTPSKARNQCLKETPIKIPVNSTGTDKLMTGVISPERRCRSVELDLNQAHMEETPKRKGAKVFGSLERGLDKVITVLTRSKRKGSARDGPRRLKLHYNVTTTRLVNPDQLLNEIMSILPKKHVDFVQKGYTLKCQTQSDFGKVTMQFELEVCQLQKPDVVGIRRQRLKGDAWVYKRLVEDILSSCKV
# Sequence of UniProt P19784 (whole entry, looked up): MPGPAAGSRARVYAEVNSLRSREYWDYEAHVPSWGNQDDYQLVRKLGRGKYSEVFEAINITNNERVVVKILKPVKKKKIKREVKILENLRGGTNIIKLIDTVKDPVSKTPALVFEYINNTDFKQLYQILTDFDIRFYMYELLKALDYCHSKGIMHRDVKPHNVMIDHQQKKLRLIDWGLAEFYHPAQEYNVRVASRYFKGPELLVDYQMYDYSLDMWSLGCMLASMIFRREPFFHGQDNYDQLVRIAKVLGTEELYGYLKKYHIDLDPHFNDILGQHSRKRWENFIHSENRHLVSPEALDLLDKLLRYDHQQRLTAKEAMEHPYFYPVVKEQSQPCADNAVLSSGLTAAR
# Sequence of UniProt O75716 (whole entry, looked up): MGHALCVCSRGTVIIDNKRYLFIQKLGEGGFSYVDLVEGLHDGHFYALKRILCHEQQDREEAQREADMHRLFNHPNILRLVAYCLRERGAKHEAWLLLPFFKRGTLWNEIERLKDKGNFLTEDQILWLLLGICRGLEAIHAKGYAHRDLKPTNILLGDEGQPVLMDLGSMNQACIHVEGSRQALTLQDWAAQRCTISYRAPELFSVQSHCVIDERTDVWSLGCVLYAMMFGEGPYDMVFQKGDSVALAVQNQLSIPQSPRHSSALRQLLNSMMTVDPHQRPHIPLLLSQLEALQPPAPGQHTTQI
# Sequence of UniProt O43283 (whole entry, looked up): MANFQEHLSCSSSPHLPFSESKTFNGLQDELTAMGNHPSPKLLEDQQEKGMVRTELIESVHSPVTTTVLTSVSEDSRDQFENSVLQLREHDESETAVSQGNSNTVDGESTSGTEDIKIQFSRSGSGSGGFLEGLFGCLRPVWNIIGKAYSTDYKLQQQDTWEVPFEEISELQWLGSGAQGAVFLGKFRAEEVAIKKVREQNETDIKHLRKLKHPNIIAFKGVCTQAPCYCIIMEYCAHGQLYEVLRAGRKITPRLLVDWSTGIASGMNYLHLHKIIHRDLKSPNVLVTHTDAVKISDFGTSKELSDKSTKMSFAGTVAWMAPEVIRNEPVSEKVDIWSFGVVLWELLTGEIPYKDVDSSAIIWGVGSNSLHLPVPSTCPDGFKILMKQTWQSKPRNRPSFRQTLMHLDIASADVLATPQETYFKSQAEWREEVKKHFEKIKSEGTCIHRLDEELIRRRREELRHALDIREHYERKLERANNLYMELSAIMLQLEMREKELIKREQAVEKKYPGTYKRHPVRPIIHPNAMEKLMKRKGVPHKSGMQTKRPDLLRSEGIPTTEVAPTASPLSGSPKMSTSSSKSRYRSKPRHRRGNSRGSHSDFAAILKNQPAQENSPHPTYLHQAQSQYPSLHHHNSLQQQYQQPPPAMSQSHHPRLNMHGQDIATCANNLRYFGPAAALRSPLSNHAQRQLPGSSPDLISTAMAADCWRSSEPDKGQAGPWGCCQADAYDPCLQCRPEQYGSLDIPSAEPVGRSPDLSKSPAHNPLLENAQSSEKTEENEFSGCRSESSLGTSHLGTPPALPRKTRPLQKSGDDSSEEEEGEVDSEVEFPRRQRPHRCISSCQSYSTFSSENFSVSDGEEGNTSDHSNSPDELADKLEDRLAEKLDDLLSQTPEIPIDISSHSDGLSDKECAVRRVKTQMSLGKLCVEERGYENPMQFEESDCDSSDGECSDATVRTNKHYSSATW
# Sequence of UniProt P42681 (whole entry, looked up): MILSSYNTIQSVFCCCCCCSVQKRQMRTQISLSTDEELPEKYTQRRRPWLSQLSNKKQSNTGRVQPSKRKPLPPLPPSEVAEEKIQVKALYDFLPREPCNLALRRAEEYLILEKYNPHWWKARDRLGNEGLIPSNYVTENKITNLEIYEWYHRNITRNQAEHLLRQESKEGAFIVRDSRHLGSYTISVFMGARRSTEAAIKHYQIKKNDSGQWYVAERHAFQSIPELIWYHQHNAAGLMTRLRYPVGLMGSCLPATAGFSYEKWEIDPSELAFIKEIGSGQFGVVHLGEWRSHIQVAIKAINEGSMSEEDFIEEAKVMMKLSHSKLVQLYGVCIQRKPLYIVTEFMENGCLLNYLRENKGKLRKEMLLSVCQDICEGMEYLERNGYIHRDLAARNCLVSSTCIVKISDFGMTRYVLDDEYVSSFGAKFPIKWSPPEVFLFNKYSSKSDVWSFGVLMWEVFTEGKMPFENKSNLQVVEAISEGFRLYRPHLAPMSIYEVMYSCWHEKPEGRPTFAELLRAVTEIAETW
# Sequence of UniProt O15264 (whole entry, looked up): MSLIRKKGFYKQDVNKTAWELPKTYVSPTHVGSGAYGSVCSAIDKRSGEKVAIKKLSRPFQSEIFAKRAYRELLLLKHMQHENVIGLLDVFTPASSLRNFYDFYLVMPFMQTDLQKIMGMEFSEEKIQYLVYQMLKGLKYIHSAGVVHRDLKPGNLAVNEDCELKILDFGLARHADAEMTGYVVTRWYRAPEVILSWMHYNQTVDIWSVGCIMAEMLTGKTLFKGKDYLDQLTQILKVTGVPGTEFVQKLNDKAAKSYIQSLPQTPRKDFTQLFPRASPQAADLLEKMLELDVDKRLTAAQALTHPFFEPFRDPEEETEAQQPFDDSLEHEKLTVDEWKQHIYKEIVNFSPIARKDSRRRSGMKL
# Sequence of UniProt O15111 (whole entry, looked up): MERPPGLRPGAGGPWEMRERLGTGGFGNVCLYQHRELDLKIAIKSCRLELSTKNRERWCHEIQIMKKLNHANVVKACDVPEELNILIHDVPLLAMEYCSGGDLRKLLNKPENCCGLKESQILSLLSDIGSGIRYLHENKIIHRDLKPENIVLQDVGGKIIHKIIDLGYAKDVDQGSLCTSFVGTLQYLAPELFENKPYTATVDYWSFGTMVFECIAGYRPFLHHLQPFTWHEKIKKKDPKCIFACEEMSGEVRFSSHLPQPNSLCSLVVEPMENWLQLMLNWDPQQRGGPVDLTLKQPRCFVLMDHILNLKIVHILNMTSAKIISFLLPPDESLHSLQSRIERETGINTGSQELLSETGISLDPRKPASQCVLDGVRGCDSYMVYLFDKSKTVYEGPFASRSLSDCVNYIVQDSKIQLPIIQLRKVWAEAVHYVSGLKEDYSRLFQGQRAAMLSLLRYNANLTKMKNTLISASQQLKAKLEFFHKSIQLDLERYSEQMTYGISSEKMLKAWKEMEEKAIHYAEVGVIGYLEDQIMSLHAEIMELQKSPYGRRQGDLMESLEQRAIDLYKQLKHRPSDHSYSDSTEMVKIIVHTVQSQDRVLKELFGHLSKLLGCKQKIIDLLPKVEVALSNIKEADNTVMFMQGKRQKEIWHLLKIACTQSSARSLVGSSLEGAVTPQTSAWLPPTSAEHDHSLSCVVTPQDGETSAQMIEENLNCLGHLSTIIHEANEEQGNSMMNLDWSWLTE

# Study 1
# Compound: C=CC(=O)N1CCC([C@@H]2CCNc3c(C(N)=O)c(-c4ccc(Oc5ccccc5)cc4)nn32)CC1
# Tested at: 1 µM
target,assay,inhibition
"CHEK2 (Homo sapiens, UniProt O96017)","enzyme activity, inhibitor",0%
"MAP3K1 (Homo sapiens, UniProt Q13233)","enzyme activity, inhibitor",0%
"CDKL5 (Homo sapiens, UniProt O76039)",enzyme activity,0%
"MAP3K13 (Homo sapiens, UniProt O43283)","enzyme activity, inhibitor",14%
"MKNK1 (Homo sapiens, UniProt Q9BUB5)","enzyme activity, inhibitor",1%
"MAP3K9 (Homo sapiens, UniProt P80192)","enzyme activity, inhibitor",13%
"RET (Homo sapiens, UniProt P07949)","enzyme activity, inhibitor",0%
"NEK9 (Homo sapiens, UniProt Q8TD19)","enzyme activity, inhibitor",14%
"EPHA8 (Homo sapiens, UniProt P29322)",cell-free assay,10%
"NEK6 (Homo sapiens, UniProt Q9HC98)","enzyme activity, inhibitor",5%
"ROS1 (Homo sapiens, UniProt P08922)","enzyme activity, inhibitor",0%
"LATS2 (Homo sapiens, UniProt Q9NRM7)","enzyme activity, inhibitor",0%

# Study 2
# Compound: O=c1cc(N2CCOCC2)oc2c1ccc1ccccc12
# Effect on: enzyme activity
# Mode: inhibitor
# Tested at: 0.5 µM
# Baseline: control
target,remaining activity
"PLK2 (Homo sapiens, UniProt Q9NYY3)",106%
"MAP4K2 (Homo sapiens, UniProt Q12851)",118%
"MAPK13 (Homo sapiens, UniProt O15264)",99.8%
"BTK (Homo sapiens, UniProt Q06187)",112%
"PRKCD (Homo sapiens, UniProt Q05655)",95.1%
"NEK4 (Homo sapiens, UniProt P51957)",97.4%
"CSNK1A1 (Homo sapiens, UniProt P48729)",115%
"CSNK2A1 (Homo sapiens, UniProt P68400)",70.9%
"EPHA5 (Homo sapiens, UniProt P54756)",110%
"AKT3 (Homo sapiens, UniProt Q9Y243)",98.3%
"WNK2 (Homo sapiens, UniProt Q9Y3S1)",103%
"LRRK2 (Homo sapiens, UniProt Q5S007)",96.9%

# Study 3
# Structure (SMILES): Cc1nc(C2CCN(C(=O)c3ccc(OC(F)(F)F)cc3N)CC2)c2ncc(N3CCN(C)CC3)cc2n1
# Method: competition with immobilised ligand
# Tested at: 1 µM
target,assay,remaining binding [%]
"PIK3CA (Homo sapiens, UniProt P42336, Q546K)",cell-free assay,88
"STK36 (Homo sapiens, UniProt Q9NRP7)",cell-free assay,100
"TXK (Homo sapiens, UniProt P42681)",binding,100
"EGFR (Homo sapiens, UniProt P00533, del746-750)",cell-free assay,100
"BMP2K (Homo sapiens, UniProt Q9NSY1)",cell-free assay,100
"STK16 (Homo sapiens, UniProt O75716)",cell-free assay,100
"WEE1 (Homo sapiens, UniProt P30291)",cell-free assay,94
"DYRK1B (Homo sapiens, UniProt Q9Y463)",cell-free assay,61
"Receptor-type tyrosine-protein kinase FLT3, autoinhibited (FLT3, Homo sapiens, UniProt P36888)",cell-free assay,83
"CSNK2A2 (Homo sapiens, UniProt P19784)",cell-free assay,85
"CDK17 (Homo sapiens, UniProt Q00537)",cell-free assay,88
"MAP3K4 (Homo sapiens, UniProt Q9Y6R4)",cell-free assay,100
"CHUK (Homo sapiens, UniProt O15111)",cell-free assay,84
"MELK (Homo sapiens, UniProt Q14680)",cell-free assay,93
"CSNK1D (Homo sapiens, UniProt P48730)",cell-free assay,83
"MAPK11 (Homo sapiens, UniProt Q15759)",cell-free assay,100
"PRKD3 (Homo sapiens, UniProt O94806)",cell-free assay,100
"MKNK2 (Homo sapiens, UniProt Q9HBH9)",cell-free assay,100
"NEK3 (Homo sapiens, UniProt P51956)",cell-free assay,89

# Study 4
# Cell line: HaCaT
# Tested at: 100 µM
# Time: 60 h
Structure (SMILES),viability
CC(=O)Oc1cc(C(F)(F)F)ccc1C(=O)O,126%
COCCOC(=O)C1=C(C)NC(C)=C(C(=O)OC(C)C)C1c1cccc([N+](=O)[O-])c1 (stereo not shown),18.5%
Cc1onc(-c2ccccc2)c1-c1ccc(S(N)(=O)=O)cc1,93.4%
Nc1ncnc2c1ncn2[C@@H]1O[C@H](COP(=O)(O)O)[C@@H](O)[C@H]1O,92.2%
Cc1[nH]c(=O)c(C#N)cc1-c1ccncc1,153%
Cc1cncc(CN2CCC(=C3c4ccc(Cl)cc4CCc4cccnc43)CC2)c1,15.6%

# Repeated from above (study 2):
target,remaining activity
"BTK (Homo sapiens, UniProt Q06187)",112%
"AKT3 (Homo sapiens, UniProt Q9Y243)",98.3%
"NEK4 (Homo sapiens, UniProt P51957)",97.4%
"MAP4K2 (Homo sapiens, UniProt Q12851)",118%
"CSNK1A1 (Homo sapiens, UniProt P48729)",115%
"WNK2 (Homo sapiens, UniProt Q9Y3S1)",103%
"CSNK2A1 (Homo sapiens, UniProt P68400)",70.9%
